Measurements from different studies.
Every numbered part comes from another study and shows a few of its results, in no order. Several values in a cell are separate wells, animals, samples, runs or records.

Study 1 — action: degrader; time: 24 h
SMILES: C[C@@H]1CN(c2ccc(-c3cc(C(=O)NCCOCCOCCOCCOCCOCCOCCNC(=O)/C=C/c4[nH]cc(C(=O)N[C@@H](CC(N)=O)c5ccc(F)c(Cl)c5)c4-c4ccc(Cl)cc4F)ccc3F)cc2NC(=O)c2ccc(F)cc2C(F)(F)F)C[C@H](C)N1C
WDR5/DCAF1: WDR5/DCAF1 (Homo sapiens, UniProt P61964+Q9Y4B6)
WDR5: WD repeat-containing protein 5 (WDR5, Homo sapiens, UniProt P61964)
target	test	setting	scale	remaining protein level
WDR5/DCAF1	HiBiT luminescence	585 nM		60.4% and 53% and 61.1%
WDR5	Jess capillary immunoassay, measured: WDR5 over vinculin	11 nM	relative to: DMSO	110% and 103% and 68.7%
WDR5	Jess capillary immunoassay, measured: WDR5 over vinculin	2 nM	relative to: DMSO	111% and 93.8% and 106%
WDR5	Jess capillary immunoassay, measured: WDR5 over vinculin	141 nM	relative to: DMSO	67.5% and 73.7% and 89.9%
WDR5	Jess capillary immunoassay, measured: WDR5 over vinculin	4270 nM	relative to: DMSO	80.7% and 72.4% and 67.8%
WDR5/DCAF1	HiBiT luminescence	10000 nM		74.9% and 71.9% and 70.1%
WDR5/DCAF1	HiBiT luminescence	1510 nM		59.5% and 59.2% and 59%

Study 2 — cell line: normal organoid sample D; technique: CellTiter-Glo; host: human; sample: normal-adjacent epithelium; concentration: 1 µM; relative to: DMSO
Structure (SMILES)	viability
CCC(=O)N[C@@H]1CC[C@H](C(=O)N(C)c2ccc(-c3nc4ccccc4o3)cc2)C1	82.1% and 96.9%
CO[C@H]1CC[C@H](CNc2ccc(S(=O)(=O)NC(=O)c3ccc(N4CCN(CC5=C(c6ccc(Cl)cc6)CC(C)(C)CC5)CC4)cc3Oc3cnc4[nH]ccc4c3)cc2[N+](=O)[O-])CC1	102% and 149%
COc1cc(-c2cn(C3CCc4c(F)cccc4N(CC(F)(F)F)C3=O)nn2)ccc1-n1cnc(C)c1 (stereo not shown)	138% and 99.8%
Cc1nc(C2CCN(C(=O)c3ccc(OC(F)(F)F)cc3N)CC2)c2ncc(N3CCN(C)CC3)cc2n1	95.8% and 75.4%
C[C@@H](NC(=O)Nc1cc2[nH]ncc2c(CO)n1)c1ccccc1	108% and 105%
Cn1cncc1[C@](O)(COc1ccc(C#N)cc1-c1ccc(OC(F)(F)F)cc1)c1ccc(C#N)cc1	56% and 49.6%
CC(=O)N1CCC(c2ccc(C(=O)NC3=NCCN3)cc2C(F)(F)F)CC1	94.3% and 116%
COc1cc(-c2cn(C3CCc4ccccc4N(CC(F)(F)F)C3=O)nn2)ccc1-n1ccc(C)n1 (stereo not shown)	76.8% and 79%
C[C@H](c1cccc(C#N)c1)n1cc(Cl)cc(C(N)=O)c1=N	131% and 116%

Study 3 — effect on: enzyme activity; action: inhibitor; concentration: 0.5 µM; relative to: control
Target: Calcium/calmodulin-dependent protein kinase type 1D (CAMK1D, Homo sapiens, UniProt Q8IU85)
SMILES	remaining activity
c1cc(-c2cnn3cc(-c4ccc(OCCN5CCCCC5)cc4)cnc23)ccn1	95.4%
O=c1c(-c2ccc(F)cc2)c(-c2ccncc2)[nH]n1-c1ccc(Cl)cc1	72.2%
N#C/C(=C(/N)SC1C=CC=CC1)c1cccc(C(O)c2ccncc2)c1 (stereo not shown)	92%
Cc1ccc(S(=O)(=O)/C=C/C#N)cc1	108%
O=C1NC(=O)c2c1c1c3ccccc3[nH]c1n1cncc21	91.9%
CCCNC(=O)Nc1ccc(Oc2ncnc3cc(OC)c(OC)cc23)cc1Cl	96.8%
COc1cccc(-c2cc(=O)c3ccccc3o2)c1N	65.3%
CC(C)n1cnc2c(Nc3cccc(Cl)c3)nc(NCCO)nc21	98.1%
FC(F)(F)c1ccc(/C=C/c2nc(COc3ccc(CCCCn4ccnn4)cc3)co2)cc1	109%
O=c1cc(N2CCOCC2)oc2c(-c3ccccc3)cccc12	47.9%
COc1cc2c(N3CCN(C(=O)Nc4ccc(OC(C)C)cc4)CC3)ncnc2cc1OCCCN1CCCCC1	110%
O=C(c1cc2cc(O)ccc2[nH]1)c1cc2cc(O)ccc2[nH]1	91.5%
CNc1cc2c(Nc3cccc(Br)c3)ncnc2cn1	92.5%
NC(=O)c1ccc(-c2nc(-c3ccc4c(c3)OCCO4)c(-c3ccccn3)[nH]2)cc1	99%
O=C(O)/C=C/c1cc(Br)c(Br)c(Br)c1Br	98.1%
Oc1cccc(-c2nc(N3CCOCC3)c3oc4ncccc4c3n2)c1	121%
CN(C)S(=O)(=O)c1ccc2c(c1)/C(=C/c1cc3c([nH]1)CCCC3)C(=O)N2	99.8%
N#CC(c1ccnc(NCCc2cccnc2)n1)c1nc2ccccc2s1 (stereo not shown)	108%
CCN(CC)CCCCN1c2ccccc2Oc2ccc(Cl)cc21	107%
O=C(c1ccccc1)c1ccc(N2CCOCC2)cc1O	99.1%
Nc1nc(Nc2ccc(S(N)(=O)=O)cc2)nn1C(=S)Nc1c(F)cccc1F	93.4%
NC(=O)c1cccc(-c2cc(Nc3ccc(OC(F)(F)F)cc3)ncn2)c1	105%
N#Cc1cnc2cnc(NCc3cccnc3)cc2c1Nc1ccc(F)c(Cl)c1	97.8%
COc1ccc(COc2ccc(Cc3cnc(N)nc3N)cc2OC)cc1	93%
O=C1NC(=O)/C(=C/c2ccc3c(c2)OC(F)(F)O3)S1	83.2%

Study 4 — host: human; sample: microsomes or S9; concentration: 2 µM; time: 0.5 h
Compound	remaining compound
Cn1ncc2cc(-c3ccc(C(C)(C)C)cc3)c(-c3ccc(C(C)(C)C)cc3)cc21	7.86%
CC(C)CN(CC(C)C)C(=O)Cn1nc(C(C)(C)C)ccc1=O	0.0454%
COC(=O)CC(c1cnn(C(C)C)c1)c1c(O)cc(C)n(CCc2c[nH]cn2)c1=O (stereo not shown)	96.4%
O=C(CCN1C(=O)c2ccccc2N2C(=O)c3ccccc3C12)NCC1CCOCC1 (stereo not shown)	30.6%
CCOc1cc(CNCCc2nc(C)oc2C)ccc1OCC(=O)Nc1ccccc1	88.1%
CCN1CC(NC(=O)c2cc3n(n2)CCC3)CC1=O (stereo not shown)	> 100%
Oc1ccc(Oc2nc3ccccc3nc2Oc2ccc(O)cc2)cc1	67.5%

Study 5
Structure (SMILES): CC(C)n1cnc(-c2ccc(F)cc2)c1-c1ncc(C(=O)Nc2ccc(N3CCN(C)CC3)cc2)[nH]1
test	test system	setting	patients with adverse event [%]
Phase 2a trial, measured: blood glucose increased	human, idiopathic pulmonary fibrosis	all compound arms total, grade 3	0
Phase 2a trial, measured: hyperuricaemia	human, idiopathic pulmonary fibrosis	30 mg once daily, grade 4	0
Phase 2a trial, measured: hypertriglyceridaemia	human, idiopathic pulmonary fibrosis	60 mg once daily, grade 2	0
Phase 2a trial, measured: hypercholesterolaemia	human, idiopathic pulmonary fibrosis	30 mg once daily, grade 4	0
Phase 2a trial, measured: blood fibrinogen increased	human, idiopathic pulmonary fibrosis	60 mg once daily, grade 1	0
Phase 2a trial, measured: blood creatinine increased	human, idiopathic pulmonary fibrosis	60 mg once daily, grade 2	0
measured: liver injury	patients with idiopathic pulmonary fibrosis	30 mg twice daily, trial, without standard of care	0

Repeated from above (study 3):
SMILES	remaining activity
CC(C)n1cnc2c(Nc3cccc(Cl)c3)nc(NCCO)nc21	98.1%
FC(F)(F)c1ccc(/C=C/c2nc(COc3ccc(CCCCn4ccnn4)cc3)co2)cc1	109%
O=c1cc(N2CCOCC2)oc2c(-c3ccccc3)cccc12	47.9%
COc1cc2c(N3CCN(C(=O)Nc4ccc(OC(C)C)cc4)CC3)ncnc2cc1OCCCN1CCCCC1	110%
O=C(c1cc2cc(O)ccc2[nH]1)c1cc2cc(O)ccc2[nH]1	91.5%
CNc1cc2c(Nc3cccc(Br)c3)ncnc2cn1	92.5%
NC(=O)c1ccc(-c2nc(-c3ccc4c(c3)OCCO4)c(-c3ccccn3)[nH]2)cc1	99%
O=C(O)/C=C/c1cc(Br)c(Br)c(Br)c1Br	98.1%
